Measured values of several laboratories.
Compare with care: the assays were run in different laboratories. Values joined by “and” are separate records of one study, mostly repeats; a detail may differ. Numbers after ± are the reported error.

Under “participants, with AEs, drug-related”, `Cn1nc(NS(C)(=O)=O)c2c(Cl)ccc(-n3c([C@H](Cc4cc(F)cc(F)c4)NC(=O)Cn4nc(C(F)F)c5c4C(F)(F)[C@@H]4C[C@H]54)nc4nc(OCCC(F)(F)F)ccc4c3=O)c21` is recorded as 15% (human; oral, dose not given).
For `Brc1ccc(Oc2cc(Br)c(Br)cc2Br)c(Br)c1`, “final permeate concentration” read 0.09 nM (ultrafiltration; cow milk whey; 20 nM nominal in whole milk).
With `Cc1ccc2nc(Cl)c3cc(C(=O)NCCCN4CCC(C)CC4)sc3c2c1` the maximum response was -5.3% (Vero-E6; CellTiter-Glo ATP; 72 h, retest 8-point duplicates; relative to: DMSO 0%, hyamine -100%, more negative, more toxic).
For `CC(C)C[C@H](NC(=O)[C@H](CCCCN)NC(=O)OCC1c2ccccc2-c2ccccc21)C(=O)N[C@H](C(=O)N[C@@H](Cc1ccccc1)C(=O)N[C@@H](Cc1ccccc1)C(=O)N[C@@H](CCCCN)C(=O)NCC(=O)N[C@@H](Cc1ccccc1)C(=O)N[C@@H](C)C(=O)N[C@@H](Cc1c[nH]c2ccccc12)C(=O)N[C@@H](CC(N)=O)C(=O)N[C@H](C(=O)N[C@H]1CSSC[C@@H](C(=O)N[C@@H](Cc2c[nH]cn2)C(=O)N[C@@H](CCCNC(=N)N)C(=O)N[C@@H](CCCNC(=N)N)C(=O)N[C@@H](C)C(=O)N[C@@H](CC(N)=O)C(N)=O)NC(=O)[C@H](C(C)C)NC(=O)[C@H](CCCNC(=N)N)NC(=O)[C@H](C(C)C)NC(=O)CNC(=O)[C@H](CC(N)=O)NC(=O)[C@H](CCCNC(=N)N)NC(=O)[C@H](Cc2ccc(O)cc2)NC(=O)[C@H](C(C)C)NC1=O)C(C)C)C(C)C`, the haematocrit was 41.2 ± 0.91% (ICR mice, blood; intraperitoneal, 5 mg/kg, day 5).
`CCCCCCCCCCCCCCCC(=O)N[C@@H](CCC(=O)NCCCC[C@H](NC(=O)[C@H](CC(=O)O)NC(=O)[C@H](CO)NC(=O)[C@@H](NC(=O)[C@H](Cc1ccccc1)NC(=O)[C@@H](NC(=O)CNC(=O)[C@H](CCC(N)=O)NC(=O)[C@H](CO)NC(=O)[C@@H](N)Cc1c[nH]cn1)[C@@H](C)O)[C@@H](C)O)C(=O)N[C@@H](CO)C(=O)N[C@@H](CCC(=O)O)C(=O)N[C@@H](Cc1ccc(O)cc1)C(=O)N[C@@H](CC(C)C)C(=O)N[C@@H](CC(=O)O)C(=O)N[C@@H](CO)C(=O)N[C@@H](CCC(=O)O)C(=O)N[C@@H](CCCNC(=N)N)C(=O)N[C@@H](C)C(=O)N[C@@H](CCCNC(=N)N)C(=O)N[C@@H](CC(=O)O)C(=O)N[C@@H](Cc1ccccc1)C(=O)N[C@H](C(=O)N[C@@H](C)C(=O)N[C@@H](Cc1c[nH]c2ccccc12)C(=O)N[C@@H](CC(C)C)C(=O)N[C@@H](CCC(=O)O)C(=O)N[C@@H](C)C(=O)NCC(=O)NCC(=O)O)C(C)C)C(=O)O` gave an atrial fibrillation of 2.7% (human, all renal groups; sc, 100 µg single dose).
For `CCN1[C@@H](C(=O)NC23CCC(C(=O)O)(CC2)CC3)[C@H](c2cccc(Cl)c2F)[C@]2(C(=O)Nc3cc(Cl)ccc32)C12CCCCC2`, “any-grade leukopenia incidence” read 57.1% (patients with advanced solid tumours; oral, dose not given, all doses).
For `C[C@]1(O)C[C@@](N)(c2ccc(-c3nc4n(c3-c3ccccc3)COc3ccncc3-4)cc2)C1`, “patients with Dyspnea TEAE” read 14.3% (human, advanced or metastatic solid tumours; intermittent, dose escalation total, any grade).
`O=C(NCCCN1CCCCC1)c1cc(Sc2ccc(Cl)cc2)nc2ccccc12` gave a cytotoxicity efficacy of 0% (Vero-E6; CellTiter-Glo ATP; concentration not given, 72 h, retest 8-point duplicates; relative to: DMSO 0%, hyamine -100%, more negative, more toxic).
`CN[C@@H](C)C(=O)N[C@H]1CN(S(=O)(=O)c2cccc(S(=O)(=O)N3CC[C@H]4CC[C@@H](C(=O)NC(c5ccccc5)c5ccccc5)N4C(=O)[C@@H](NC(=O)[C@H](C)NC)C3)c2)CC[C@H]2CC[C@@H](C(=O)NC(c3ccccc3)c3ccccc3)N2C1=O`: “treatment-related pruritus incidence” 0% (patients with advanced solid tumours; 45 mg, phase I monotherapy).
For `CCN(CCO)CCCC(C)Nc1ccnc2cc(Cl)ccc12` (centres unmarked), “erythema multiforme patients” read 14% (newly diagnosed glioblastoma patients; oral, 400 mg/dose, grade 1, with: radiotherapy plus temozolomide).
`C[C@]1(CO)Cc2ncn(-c3ccc(C#N)c(Cl)c3)c2C(=O)O1` — result for “subjects with drug-related hyperhidrosis”: 0% (human; 40 mg multiple doses, fasted).
`C[C@@H]1NC(=O)[C@H](CCCCNC(=O)CO/N=C/C(=O)NCCCC[C@@H]2NC(=O)[C@@H](Cc3ccccc3)NC(=O)[C@H](CC(=O)O)NC(=O)CNC(=O)[C@H](CCCNC(=N)N)NC2=O)NC(=O)CNC(=O)[C@@H]2CCCN2C(=O)[C@H](CCCCNC(=O)CO/N=C/C(=O)NCCCC[C@@H]2NC(=O)[C@@H](Cc3ccccc3)NC(=O)[C@H](CC(=O)O)NC(=O)CNC(=O)[C@H](CCCNC(=N)N)NC2=O)NC(=O)[C@H](CCCCNC(=O)CN2CCCNCCNCCCNCC2)NC(=O)[C@H](CCCCNC(=O)CO/N=C/C(=O)NCCCC[C@@H]2NC(=O)[C@@H](Cc3ccccc3)NC(=O)[C@H](CC(=O)O)NC(=O)CNC(=O)[C@H](CCCNC(=N)N)NC2=O)NC(=O)CNC(=O)[C@@H]2CCCN2C(=O)[C@H](CCCCNC(=O)CO/N=C/C(=O)NCCCC[C@@H]2NC(=O)[C@@H](Cc3ccccc3)NC(=O)[C@H](CC(=O)O)NC(=O)CNC(=O)[C@H](CCCNC(=N)N)NC2=O)NC1=O` [copper-64 labelled] has a tissue uptake of 0.06 ± 0.01 %ID/g (normal mice, blood; intravenous, 0.74 MBq, 24 h post-injection).
`O=C(c1ccc(F)c(F)c1Nc1ccc(I)cc1F)N1CC(O)([C@@H]2CCCCN2)C1`: “onset day of chorioretinopathy DLT” 13 days (human; oral, 0.6 mg/kg).
For `COc1ccc(C[C@@H]2NC(=O)[C@H]([C@@H](C)O)NC(=O)[C@@H]3[C@@H]4CCN3C(=O)[C@@H]3Cc5cn(c6ccc(F)cc56)CCCCCCN(Cc5ccc(cc5)CCNC(=O)[C@]5(C)CCCN5C2=O)C(=O)CCC(=O)N[C@@H](C)C(=O)N[C@H](CNC(=O)CCCCC[N+](C)(C)C)C(=O)N[C@@H](Cc2cccc(c2)CNC(=O)CO4)C(=O)N3)cc1`, “participants with adverse event” read 6.5% (measured: nasal congestion; human; dose not given).
Under “treatment-related adverse events”, `CC(C)(O)c1cc(Nc2cc(Oc3cn(C4CC4)nc3C3CCOCC3)ccn2)ccn1` is recorded as 0% (Constipation; patients with advanced cancer, grade 4 glioma expansion; oral, 50 mg twice daily, grade ≥3, 2 weeks on/2 weeks off schedule).
`O=S(=O)(Nc1ccccc1)c1ccc(NC(=S)Nc2ccccc2)cc1` has a haemoglobin of 14.3 g/dL (female mouse, blood; oral, 5 mg/kg daily, 14 days).
With `COc1ncccc1-c1cnn2ccc(N3CCN(C(=O)OC(C)C)CC3)nc12` the drug concentration was 4.8 µM (rat, CCI mechanical allodynia model, plasma; oral, 30 mg/kg, 240 min).
The bench-top stability of `O=c1nc(NO)ccn1[C@@H]1O[C@H](CO)[C@@H](O)[C@H]1O` is reported as 97.3 ± 3.77% (rat amniotic fluid dialysate; 1000 ng/mL, 6 h, room temperature, high QC concentration, with: molnupiravir).
`COc1cc(C2C3=C(COC3=O)N(CCO)c3cc4c(cc32)CCC4)cc(OC)c1OC` (centres unmarked) has a body weight of 23.3 g (female C57BL/6 mice; intraperitoneal, 400 mg/kg, 0 h, single dose, mean).
`CNC(=O)c1cc(Oc2ccc(NC(=O)Nc3cc(C(C)(C)C)nn3-c3ccc4ncccc4c3)c(F)c2)ccn1` has a related SAE of 7% (muscular weakness, NCI CTC v3.0; human patients; oral, all dose levels).
The reduction potential of `COc1c(N2CC3CCCNC3C2)c(F)cc2c(=O)c(C(=O)OCc3cnc([N+](=O)[O-])s3)cn(C3CC3)c12.O=C(O)C(F)(F)F` (centres unmarked) is reported as -0.63 V (cyclic voltammetry; anhydrous acetonitrile; concentration not given; relative to: Ag/AgCl).
`CO[C@H]1C[C@@H]2CC[C@@H](C)[C@@](O)(O2)C(=O)C(=O)N2CCCC[C@H]2C(=O)O[C@H]([C@H](C)C[C@@H]2CC[C@@H](OC(=O)NCCOCCOCCOCCOCCOCCOCCOCCOCCC(=O)N3CCc4cc(Cn5nc(-c6ccc7oc(N)nc7c6)c6c(N)ncnc65)ccc4C3)[C@H](OC)C2)C[C@@H](O)[C@H](C)/C=C(\C)[C@@H](O)[C@@H](OC)C(=O)[C@H](C)C[C@H](C)/C=C/C=C/C=C/1C`: “maculopapular rash incidence” 6.3% (patients with advanced solid tumours; intravenous, 8 mg weekly, grade 3 or higher).
`COc1cc2c(Oc3ccc4[nH]c(C)cc4c3F)ccnc2cc1OCC1(N)CC1` has a Hyperuricaemia incidence of 18.2% (paediatric refractory sarcoma patients; 12 mg).
With `O=c1cc(-c2ccc(O)c(O)c2)oc2cc(O)cc(O)c12` the faecal excretion was 2 ± 1.11 ng (Sprague-Dawley rat, male, lean, faeces; oral, 100 mg/kg neohesperidin, 36-48 h).
`CC(=O)c1c(C)c2cnc(Nc3ccc(C4CCN(CCS(C)(=O)=O)CC4)cn3)nc2n(C2CCCC2)c1=O` has an MRT of 11.1 h (human, plasma; oral, 150 mg, day 1 single dose).
For `COc1ccc(-c2c(-c3ccc(C#N)c(F)c3)nc(N3CCC(N)CC3)n(C)c2=O)cc1F`, “treatment-related adverse event incidence” read 0% (measured: Fatigue/asthenia; relapsed/refractory marginal zone lymphoma patients; oral, 60 mg, any grade, dose expansion).
`CC(C)(C)c1cc(-n2nc3ccc(Cl)cc3n2)c(O)c(C(C)(C)C)c1` — result for “time to 80% permeation”: 9 h (reconstructed human epidermis EpiSkin; sunscreen extract).
For `CC1(C)C(C=C(Cl)Cl)C1C(=O)OC(C#N)c1ccc(F)c(Oc2ccccc2)c1` (centres unmarked), “enzyme contribution to clearance” read 0.67% (measured: CYP2C8; human, age 6 months, recombinant human CYP2C8; 0.1 µM).
Under “incidence of Malaise”, `COc1ncnn2ccc(-c3cnc4nc(C)n(Cc5nnc([C@@H](C)F)o5)c4c3)c12` is recorded as 14.3% (human patients; oral, dose not given, grade 1 adverse drug reaction).
For `C[C@@H]1OC(=O)NN=C1c1ccc(-c2ccc(F)cc2)c(C(F)(F)F)c1`, “patients with adverse event” read 100% (phase I trial, measured: Fatigue worst grade 1; human patients; 20 mg loading then 1 mg daily).
For `COc1ccc2nc3cc(Cl)ccc3c(Nc3cc(CN4CCCC4)c(O)c(CN4CCCC4)c3)c2n1`, the eosinophils was 14.4% (mouse, blood; intraperitoneal, 14 mg/kg).
`O=C(O)CCCOc1ccc(F)cc1-c1cc(-c2ccccc2C(F)(F)F)n(-c2ccccc2)n1` has an organ weight of 0.79 ± 0.07 g (female Crl:CD(SD) rats, heart; intravenous, 25 µg/kg, 1 d).
For `CC(C)[C@@H]1NC(=O)CNC(=O)[C@H](CC(N)=O)NC(=O)[C@H](CCCNC(=N)N)NC(=O)[C@H](Cc2ccc(O)cc2)NC(=O)[C@H](C(C)C)NC(=O)[C@@H](NC(=O)[C@@H](NC(=O)[C@H](CC(N)=O)NC(=O)[C@H](Cc2c[nH]c3ccccc23)NC(=O)[C@H](C)NC(=O)[C@H](Cc2ccccc2)NC(=O)CN)C(C)C)CSSC[C@@H](C(=O)N[C@@H](Cc2cnc[nH]2)C(=O)N[C@@H](CCCNC(=N)N)C(=O)N[C@@H](CCCNC(=N)N)C(=O)N[C@@H](C)C(=O)N[C@@H](CC(N)=O)C(N)=O)NC(=O)[C@H](C(C)C)NC(=O)[C@H](CCCNC(=N)N)NC1=O`, the peptide remaining was 0% and 1.74% (HPLC; mouse liver homogenate 50 mg/mL; 8.00 h).
`O=C(Nc1ccccc1)C1CCN(C(=O)Oc2cccnc2)CC1`: “Psychiatric disorders adverse events” 7.1% (healthy women; oral, 20 mg, 7 days).
With `CC(C)Nc1ccnc(Nc2cccc(-c3cccnc3)c2)n1` the blood chemistry was 3760 U/L (measured: amylase; mouse, blood; intraperitoneal, 10 mg/kg).
`CN1CC[C@@H](c2c(O)cc(O)c3c(=O)cc(-c4ccc(C(F)(F)F)cc4Cl)oc23)[C@@H]1CO` — result for “patients with adverse event”: 12.5% (measured: Sepsis; relapsed B-cell malignancies or AML; oral, 100 mg, grade 3-4, continuous dosing).
`Clc1ccc(-c2ccccc2)cc1` gave a sodium of 111 ± 22 mmol/L (female Sprague-Dawley rats, serum; inhalation, 23 µg/rat, 0 h after exposure).
`CCc1ccc(CC/C=C/c2ccc3c(c2)C(=O)CC3)cc1` has a Hemoglobin of 145 g/L (Sprague-Dawley rat, male; oral, 120 mg/kg/day, 14 days).

A few entries again:
`CNC(=O)c1cc(Oc2ccc(NC(=O)Nc3cc(C(C)(C)C)nn3-c3ccc4ncccc4c3)c(F)c2)ccn1` has a related SAE of 7% (muscular weakness, NCI CTC v3.0; human patients; oral, all dose levels).
The reduction potential of `COc1c(N2CC3CCCNC3C2)c(F)cc2c(=O)c(C(=O)OCc3cnc([N+](=O)[O-])s3)cn(C3CC3)c12.O=C(O)C(F)(F)F` (centres unmarked) is reported as -0.63 V (cyclic voltammetry; anhydrous acetonitrile; concentration not given; relative to: Ag/AgCl).
`CO[C@H]1C[C@@H]2CC[C@@H](C)[C@@](O)(O2)C(=O)C(=O)N2CCCC[C@H]2C(=O)O[C@H]([C@H](C)C[C@@H]2CC[C@@H](OC(=O)NCCOCCOCCOCCOCCOCCOCCOCCOCCC(=O)N3CCc4cc(Cn5nc(-c6ccc7oc(N)nc7c6)c6c(N)ncnc65)ccc4C3)[C@H](OC)C2)C[C@@H](O)[C@H](C)/C=C(\C)[C@@H](O)[C@@H](OC)C(=O)[C@H](C)C[C@H](C)/C=C/C=C/C=C/1C`: “maculopapular rash incidence” 6.3% (patients with advanced solid tumours; intravenous, 8 mg weekly, grade 3 or higher).
`COc1cc2c(Oc3ccc4[nH]c(C)cc4c3F)ccnc2cc1OCC1(N)CC1` has a Hyperuricaemia incidence of 18.2% (paediatric refractory sarcoma patients; 12 mg).
